Values quoted from earlier work that unrelated publications cite.
Converted amounts (≈) assume the structure as drawn.
Sequence of UniProt Q9H0K1 (whole entry, looked up): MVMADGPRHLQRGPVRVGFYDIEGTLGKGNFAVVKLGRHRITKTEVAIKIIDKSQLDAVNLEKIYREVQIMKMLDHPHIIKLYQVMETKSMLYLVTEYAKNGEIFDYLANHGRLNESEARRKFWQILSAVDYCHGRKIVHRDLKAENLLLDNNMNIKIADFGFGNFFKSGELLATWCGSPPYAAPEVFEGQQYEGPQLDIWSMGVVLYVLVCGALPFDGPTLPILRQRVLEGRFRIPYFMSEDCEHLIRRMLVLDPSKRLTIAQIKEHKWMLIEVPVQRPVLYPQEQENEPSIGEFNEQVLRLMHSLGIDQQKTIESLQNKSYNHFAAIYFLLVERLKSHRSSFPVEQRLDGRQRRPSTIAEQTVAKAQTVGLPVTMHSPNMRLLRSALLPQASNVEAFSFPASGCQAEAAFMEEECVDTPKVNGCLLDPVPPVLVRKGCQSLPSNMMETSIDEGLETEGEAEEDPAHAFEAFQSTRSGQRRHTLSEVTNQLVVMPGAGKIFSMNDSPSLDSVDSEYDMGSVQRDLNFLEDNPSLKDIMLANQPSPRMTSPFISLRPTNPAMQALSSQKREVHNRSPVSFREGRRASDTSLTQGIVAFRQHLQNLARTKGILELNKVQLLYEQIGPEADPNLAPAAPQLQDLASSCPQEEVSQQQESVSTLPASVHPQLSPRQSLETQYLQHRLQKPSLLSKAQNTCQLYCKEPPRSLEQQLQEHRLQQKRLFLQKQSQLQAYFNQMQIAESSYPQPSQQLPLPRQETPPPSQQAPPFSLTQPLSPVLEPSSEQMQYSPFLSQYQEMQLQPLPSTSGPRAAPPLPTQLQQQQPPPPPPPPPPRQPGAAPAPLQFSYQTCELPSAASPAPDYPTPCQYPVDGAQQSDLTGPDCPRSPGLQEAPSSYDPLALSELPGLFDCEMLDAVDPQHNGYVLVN

`Cc1[nH]cc(Br)c(=O)c1-c1ccc(Oc2ccc(OC(F)(F)F)cc2)cc1` gave an IC50 of 330 nM (Plasmodium falciparum; whole cell extended time; 3D7; 72 h).
`COc1ccc(-c2cc(NC(=O)c3ccc(Cl)cc3F)ccc2OC)cc1` gave an MIC90 of 12.5 µM (≈ 4.82 µg/mL) (Mycobacterium tuberculosis).
With `Cc1cnc(N2CC3(CCOCC3)C2)c(C(=O)Nc2ccc(C(=O)N3CCc4cc(C(=O)Nc5c(C)cccc5F)sc4-c4ccccc43)cc2)c1` the IC50 was 19.5 ng/mL (respiratory syncytial virus; cytopathic effect; B WST).
For `CCc1c(Cl)c(O)c(Cl)c(O)c1C(=O)O[C@H]1[C@H](O)[C@H](OC)[C@H](OC/C2=C\C=C\C[C@H](O)/C(C)=C/[C@H](CC)[C@@H](O[C@@H]3OC(C)(C)[C@@H](OC(=O)C(C)C)[C@H](O)[C@@H]3O)/C(C)=C/C(C)=C/C[C@@H]([C@@H](C)O)OC2=O)O[C@@H]1C`, the MIC was no more than 0.01 mg/L (Clostridioides difficile; NAP7 ribotype 078).
For `CCc1ccc(C(=O)NC(=O)c2ccccc2O)cc1`, the IC50 was 610 nM (Plasmodium falciparum; whole cell extended time; 3D7; 72 h).
`CC(C)C[C@H](NC(=O)[C@H](Cc1cccc2ccccc12)NC(=O)OCc1ccccc1)C(=O)N[C@H](C=O)C[C@@H]1CCNC1=O` has an EC50 of 0.04 µM (Norwalk virus; viral replication; HG23, GI.1 replicon).
`COc1ccc(C=CC(=O)NC(=O)c2ccccc2OC(=O)c2ccccc2)cc1OC` has an IC50 of 910 nM (Plasmodium falciparum; whole cell extended time; 3D7; 72 h).
For `N#CSCCOc1ccc(Oc2ccccc2)cc1`, the EC50 was 12 µM (Trypanosoma cruzi; parasite growth; intracellular amastigotes).
With `CNC(C)C1CCC(N)C(OC2C(N)CC(N)C(OC3OCC(C)(O)C(NC)C3O)C2O)O1` (stereo not shown) the MIC was 1 mg/L (≈ 2.09 µM) (Klebsiella pneumoniae; clinical isolate RKI-No_138/16).
`Nc1cc(C(F)(F)F)c(-c2nc(N3CCOCC3)nc(N3CCOCC3)n2)cn1` gave a remaining activity of 97% (Serine/threonine-protein kinase SIK2 (SIK2, Homo sapiens, UniProt Q9H0K1); enzyme activity; 10 µM; baseline: untreated).
`COc1ccc(-c2ccn(CC[C@](C)(C(=O)NO)S(C)(=O)=O)c(=O)c2)c(F)c1` gave a post-antibiotic effect of 1.26 h (Pseudomonas aeruginosa; PAO1; 4 × MIC).
`O=c1c(O)c(-c2ccc(O)c(O)c2)oc2cc(O)cc(O)c12` gave an IC50 of 12700 nM (VZV; viral replication).
The IC50 of `Cc1[nH]c(C)c(-c2ccc(OCc3cc(C(F)(F)F)cc(C(F)(F)F)c3)nc2)c(=O)c1Br` is reported as 150 nM (Plasmodium falciparum; whole cell extended time; 3D7; 72 h).
With `CC1(C)S[C@@H]2[C@H](NC(=O)[C@H](N)c3ccccc3)C(=O)N2[C@H]1C(=O)O` the MIC was 8 mg/L (≈ 22.9 µM) (Klebsiella pneumoniae; clinical isolate RKI-No_600/16).
`COc1ccc(C=C2SC(=N)N(c3ccccc3OC)C2=O)cc1` has an IC50 of 300 nM (Plasmodium falciparum; whole cell extended time; 3D7; 72 h).
`Cc1ccc(Oc2ccc(NC(=O)CNc3ccccc3N3CCCC3=O)cc2)cc1` gave an EC50 of 10 µM (Plasmodium falciparum; parasite growth; 3D7 population D CSC1 L954F).
